Measured values gathered from unrelated publications.
Several values in a cell are separate wells, animals, samples, runs or records.

| SMILES | test | system | conditions | scale | measurement | value |
| --- | --- | --- | --- | --- | --- | --- |
| Cc1noc(C)c1Cn1cc(N2C(=O)CN(Cc3cccc(O[C@@H]4O[C@H](C(=O)O)[C@@H](O)[C@H](O)[C@H]4O)c3)C2=O)cn1 | – | Sprague-Dawley rat, male | oral, 100 mg/kg of parent drug, 1 h | – | plasma concentration | 6640 ng/mL |
| O=C([O-])CN1CCN(CC(=O)[O-])CCN(C(CO)C(O)CO)CCN(CC(=O)[O-])CC1.[Dy+3] (centres unmarked) | – | female cynomolgus monkey, plasma | intravenous, dose not given | – | elimination half-life | 1.09 h |
| C=Cc1c(C)c2cc3nc(c(CC(=O)O)c4[nH]c(cc5nc(cc1[nH]2)C(C)=C5CC)c(C)c4C(=O)O)[C@@H](CCC(=O)OCCOCCOCCOC)[C@@H]3C | LC-MS | methanol-water 9:1 | 5 min, pH 8.0 | – | compound loss | 2% |
| O=C(Nc1cnccc1-c1ccc([18F])cc1)c1ccnc(NC(=O)C2CC2)c1 | ex vivo gamma counting | FVB/NJ mice, both sexes, heart | intravenous, 120 min, mean, P-gp inhibitor pretreatment, added: tariquidar 15 mg/kg iv | – | SUV | 0.34 |
| CC(C)OCCOCc1ccc(OCC(O)CN(N=O)C(C)C)cc1 (centres unmarked) | duplex sequencing, item: mutation frequency | NMRI mouse, liver | oral, 29.85 mg/kg/day, 4 weeks | reference: vehicle | fold change | 1.04 |
| CC(C(=O)O)n1nc(Cn2cc3cc(OCC[18F])c(Cl)cc3n2)c2ccccc2c1=O (racemic) | – | rat, bone | 5 min | – | tracer uptake | 0.12 %ID/g |
| Cc1nn(-c2nc3c(F)cc(F)cc3s2)c(O)c1C(c1ccc(C(F)(F)F)cc1)c1c(C)nn(-c2nc3c(F)cc(F)cc3s2)c1O | – | male ICR mouse, plasma | oral, 50 mg/kg | – | dose-normalised AUC(0-t) | 7220 kg·ng·h/mL/mg and 7620 kg·ng·h/mL/mg and 7070 kg·ng·h/mL/mg |
| CC(=O)N[C@H](CC(=O)O)C(=O)N[C@H](Cc1c[nH]c2ccccc12)C(=O)N[C@H](Cc1ccccc1)C(=O)N[C@H](CCCCN)C(=O)N[C@H](C)C(=O)N[C@H](Cc1ccccc1)C(=O)N[C@H](Cc1ccc(O)cc1)C(=O)N[C@H](CC(=O)O)C(=O)N[C@H](CCCCN)C(=O)N[C@@H](C(=O)N[C@H](C)C(=O)N[C@H](CCC(=O)O)C(=O)N[C@H](CCCCN)C(=O)N[C@H](Cc1ccccc1)C(=O)N[C@H](CCCCN)C(=O)N[C@H](CCC(=O)O)C(=O)N[C@H](C)C(=O)N[C@H](Cc1ccccc1)C(N)=O)C(C)C | – | human, plasma | oral, 500 mg daily, 0.5 h post-dose, day 13 | – | plasma concentration | 589 ng/mL |
| CC(C)(F)CC(NC(c1ccc(-c2ccc(S(C)(=O)=O)cc2)cc1)C(F)(F)F)C(=O)NCC#CBr (centres unmarked) | – | MES buffer | 100 µM, 23 h, pH 5.5, 37 °C, added: cysteine 10 mM | – | cysteine adduct formation | < 1% |
| CCCN(C)c1cc(C(F)(F)F)nc(SCCC(=O)NCc2ccco2)n1 | – | Wistar rat, anaesthetised with isoflurane | intraperitoneal, 25 mg/kg, 2 min | reference: vehicle | systolic blood pressure | no effect |
| [123I]c1ccc2nc(-c3ccc(-n4ccnn4)nc3)cn2c1 | – | male Wistar rat, heart | intravenous, 4 MBq, 5 min | – | tracer uptake | 0.685 %ID/g |
| CCCC[C@H](NC(=O)CNC(=O)CNC(=O)[C@H](CCCCNC(=O)[C@H](CCN)NC(=O)C(C)c1ccc(CC(C)C)cc1)NC(=O)CN1CCN(CC(=O)O)CCN(CC(=O)O)CCN(CC(=O)O)CC1)C(=O)N[C@H]1CC(=O)NCCCC[C@@H](C(N)=O)NC(=O)[C@H](Cc2c[nH]c3ccccc23)NC(=O)[C@H](CCCNC(=N)N)NC(=O)[C@@H](Cc2ccccc2)NC(=O)[C@H](Cc2c[nH]cn2)NC1=O (some centres unmarked) [lutetium-177 labelled] | – | C57 mice, tumour | 2 h | reference: muscle | tumour-to-tissue ratio | 68.6 |
| CC(C)C[C@H](NC(=O)[C@@H](CCCCNC(=O)[C@@H](Cc1ccccc1)NC(=O)CCCCCCCNC(=O)CN1CCN(CC(=O)O)CCN(CC(=O)O)CCN(CC(=O)O)CC1)NC(=O)[C@H](Cc1ccc(O)cc1)NC(=O)[C@H](CO)NC(=O)[C@H](Cc1c[nH]c2ccccc12)NC(=O)[C@H](Cc1c[nH]cn1)NC(=O)[C@@H]1CCC(=O)N1)C(=O)N[C@@H](CCCNC(=N)N)C(=O)N1CCC[C@H]1C(=O)NCC(N)=O [indium-111 labelled] | – | male athymic nude mice, DU-145 prostate cancer xenograft, tumour | intravenous, 0.037 MBq, 2 h | reference: tumour over blood | tumour-to-tissue ratio | 3.53 |
| C=C(NC(=O)c1csc(-c2nc3c(cc2O)-c2nc(cs2)C(=O)NC(C(C)O)C(=O)NC(=C(C)OC)c2nc(cs2)C(=O)NC2c4nc(cs4)C(=O)NC(COC(=O)c4c5c6c(cccc6n4O)COC(=O)C(OC4CC(C)(O)C(N(C)C)C(C)O4)C2OC5)c2nc-3cs2)n1)C(N)=O (centres unmarked) | – | cynomolgus monkey, male, plasma | intravenous infusion, 3 mg/kg multiple doses, day 7 | – | Tmax | 0.34 h |
| N=C(N)NCCC[C@@H]1NC(=O)[C@H](CO)NC(=O)[C@@H](NC(=O)[C@H](CO)NC(=O)[C@H](CO)NC(=O)[C@H](Cc2c[nH]c3ccccc23)NC(=O)CNC(=O)[C@H](CO)NC(=O)[C@@H](N)Cc2c[nH]c3ccccc23)CSSC[C@@H](C(=O)NCC(=O)O)NC(=O)[C@H](CO)NC1=O | – | patients, plasma | intravenous, 5 mg/kg, thrice weekly, mean | – | total clearance | 1420 L/h |
| C=CC(=O)Nc1cc(Nc2nccc(-c3c[nH]c4ccccc34)n2)c(OC)cc1N(C)CCN(C)C | storage stability | human dried blood spots | 5 h, on ice, high QC level | – | recovery | 101% |

| SMILES | test | system | conditions | scale | measurement | value |
| --- | --- | --- | --- | --- | --- | --- |
| C=CC(=O)N1CCCC(n2c(=O)c3ncccc3n(Cc3ccc(Oc4ccccc4)cc3)c2=O)C1 (centres unmarked) | – | male BALB/c mouse, plasma | intraperitoneal, 200 mg/kg, 30 min | – | concentration | 87400 ng/mL |
| O=C(O)CCCOc1ccc([18F])cc1-c1cc(-c2ccccc2C(F)(F)F)n(-c2ccccc2)n1 | OLINDA/EXM from mouse data | human adults, pancreas | – | – | absorbed dose | 10.8 µGy/MBq |
| C=CC(=O)Nc1cc(Nc2nccc(-c3cn(C)c4ccccc34)n2)c(OC)cc1N(C)CCNC | storage stability | human plasma | 30 d, on ice, LLOQ level | – | recovery | 50.6% |
| COc1cccc(OC)c1-c1cc(C(=O)NC2(C(=O)O)C3CC4CC(C3)CC2C4)nn1-c1ccc(C(=O)N(C)CCOCCN(C)C(=O)[C@H](CCCCNC(=O)[C@H](CC(C)C)NC(=O)C2OC2C(=O)O)NC(=O)CN2CCN(CC(=O)[O-])CCN(CC(=O)[O-])CCN(CC(=O)[O-])CC2)cc1C(C)C.[177Lu+3] (mixture of isomers) | – | mouse, HT-29 xenograft, heart | 24 h post injection | – | tissue uptake | 0.4 %ID/g |
| O=C(OC(C(F)(F)F)C(F)(F)F)N1CCC(CNS(=O)(=O)c2ccc(Cl)cc2)CC1 | – | CB17 SCID mice, male, plasma | oral, 10 mg/kg | – | Tlast | 8 h |
| CC(C)[C@H](NC(=O)[C@H](Cc1c[nH]c2ccccc12)NC(=O)[C@H](CCCNC(=N)N)NC(=O)[C@H](CCCNC(=N)N)NC(=O)[C@@H](NC(=O)[C@@H](NC(=O)[C@H](CCCNC(=N)N)NC(=O)[C@@H](NC(=O)[C@@H](NC(=O)[C@H](CCCNC(=N)N)NC(=O)[C@H](CCCNC(=N)N)NC(=O)[C@@H](NC(=O)[C@H](Cc1c[nH]c2ccccc12)NC(=O)[C@H](CCCNC(=N)N)NC(=O)[C@H](CCCNC(=N)N)NC(=O)[C@@H](NC(=O)[C@H](CCCNC(=N)N)NC(=O)[C@H](CCCNC(=N)N)NC(=O)[C@@H](NC(=O)[C@H](Cc1c[nH]c2ccccc12)NC(=O)[C@H](CCCNC(=N)N)NC(=O)[C@@H](N)CCCNC(=N)N)C(C)C)C(C)C)C(C)C)C(C)C)C(C)C)C(C)C)C(C)C)C(=O)N[C@@H](CCCNC(=N)N)C(=O)N[C@@H](CCCNC(=N)N)C(=O)O | – | CD1 mouse, urine | intravenous, 15 mg/kg, 6 to 24 h, [14C]-labelled compound | – | urine volume | 160 µL/day/g body weight |
| Cc1cc(C)n(CCN(CCN)CCCCCCNC(=O)[C@@H](N)Cc2c[nH]cn2)n1.[99Tc+].[C-]#[O+].[C-]#[O+].[C-]#[O+] | – | BALB/c nude mice A549 xenograft | intravenous, 4 h | reference: tumour over bone | tumour-to-tissue ratio | 5.4 |
| CN([O-])C(=O)CN1CCN(CC(=O)N(C)[O-])CCN(Cc2ccccn2)CC1.[89Zr+4] | – | mouse, bone | intravenous, 24 h | – | tracer uptake | 12.9 %ID/g |
| COc1ccnc(C(=O)N[C@H]2COC(=O)[C@H](Cc3ccccc3)[C@@H](OC(=O)C(C)C)[C@H](C)OC2=O)c1O | – | Staffordshire loam sediment, aerobic dark | 20 °C | – | DT50 sediment | 0.91 days |
| CN1CCC[C@]1(C)/C=C/S(=O)(=O)NC(=O)Nc1c2c(cc3c1CCC3)CCC2 | item: transaminases increased, probably related | human | oral, 100 mg twice daily, 14 days, multiple ascending dose | – | subjects with adverse event | 16.7% |
| O=C(NS(=O)(=O)c1cccs1)c1cc2ccccc2n1Cc1ccc(Br)c2ccccc12 | – | mouse, plasma | oral, 2 mg/kg | – | MRT(0-inf) | 1.17 h |
| Cc1cc(-c2ccc(C(=O)[C@@H]3CCCC[C@H]3C(=O)Nc3cnn4c3C(=O)NCC4)cc2)[nH]n1 | – | human, urine | oral, 200 mg | reference: dose | recovery of radioactivity | 5.62% and 6.8% and 4.93% and 6.73% and 4.97% and 6.33% |
| CC[C@H](C)[C@@H]1NC(=O)[C@H](Cc2ccc(O)cc2)NC(=O)CCCSC[C@@H](C(=O)N(CC(=O)N[C@@H](CC(C)C)C(=O)NCC(N)=O)Cc2ccc(F)cc2)NC(=O)[C@H](CC(N)=O)NC(=O)[C@H](CCC(N)=O)NC1=O | – | healthy human, plasma | intranasal, 50 µg every 3 h, after first dose | – | Cmax | 0.034 ng/mL |
| O=C(Nc1cnccc1-c1ccc([18F])nc1)c1ccnc(NC(=O)C2CC2)c1 | ex vivo gamma counting | FVB/NJ mice, both sexes, right kidney | intravenous, 120 min, added: tariquidar 15 mg/kg iv | – | mean SUV | 1.62 |
| CS(=O)(=O)c1cc(Cl)cc(-c2cc(Cl)c(Cl)cc2Cl)c1Cl | – | cow whole milk | 20 nM | reference: milk fat over skim milk | milk fat partition ratio | 231 |
| COCC1CN(C2CCN(c3cc(OC)c(Nc4ncc(Br)c(Nc5ccc6c(c5P(C)(C)=O)OCCO6)n4)cc3C)CC2)C1 | – | human, plasma | oral, 10 mg, multiple doses, patients | – | AUC | 590 ng·h/mL |

Repeated from above:
| SMILES | test | system | conditions | scale | measurement | value |
| --- | --- | --- | --- | --- | --- | --- |
| CC(C(=O)O)n1nc(Cn2cc3cc(OCC[18F])c(Cl)cc3n2)c2ccccc2c1=O (racemic) | – | rat, bone | 5 min | – | tracer uptake | 0.12 %ID/g |
| Cc1nn(-c2nc3c(F)cc(F)cc3s2)c(O)c1C(c1ccc(C(F)(F)F)cc1)c1c(C)nn(-c2nc3c(F)cc(F)cc3s2)c1O | – | male ICR mouse, plasma | oral, 50 mg/kg | – | dose-normalised AUC(0-t) | 7220 kg·ng·h/mL/mg and 7620 kg·ng·h/mL/mg and 7070 kg·ng·h/mL/mg |
